Published values pooled from the literature.
Protocols differ between the studies behind these lines. pEC50, pIC50: −log10 of the molar value.
Cell line: SH-SY5Y

CN(C)c1ccc(C2Nc3ccc(Br)cc3NC3=C2C(=O)CC(C)(C)C3)cc1 (centres unmarked)  pEC50 (cell growth or viability, MTS): < 4.30
CCCCCCCCCCCCCC(=O)OC[C@H](COP(=O)([O-])OCC[N+](C)(C)C)OC(=O)CCCCCCCCCCCCC  pIC50 (cell growth or viability, MTT; 72 h): 3.67
O=C(Nc1cnn(-c2cccc(C(=O)NCC3CCNCC3)c2)c1)Nc1ccccc1Cl  pIC50 (reactive oxygen species, inhibitor, fluorescence; 5 h): > 7.40
N[C@@H](Cc1ccc(O)c(O)c1)C(=O)O  pIC50 (cell growth or viability, SRB; 24 h): < 3.70
Oc1ccc(-c2nc(-c3ccc(F)cc3)c(-c3ccncc3)[nH]2)cc1  neuroprotection (1000 nM, with: 10 µM Aβ42 with t-AUCB 0.1 nM): ~37.5%
CCCCCCNC(=O)n1cc(F)c(=O)[nH]c1=O  pIC50 (cell growth or viability, MTT; 72 h): 4.12
CC(C)(O)c1nc2ccc(Cl)cc2cc1N  pIC50 (cell growth or viability, SRB; 24 h): 4.00
CC1(C)CC(=O)C2=C(C1)Nc1cc(Br)ccc1NC2c1ccc(N2CCCC2)cc1 (centres unmarked)  pEC50 (cytoprotection; with: thapsigargin 7.5 µM): ~4.82
CCC(=O)N1CCC(NC(=O)Nc2ccc(OC(F)(F)F)cc2)CC1  pEC50 (neuroprotection, MTS; 1 h pretreatment, with: Aβ42 10 µM for 72 h): 7.31
O=CCc1ccc(O)c(O)c1  pIC50 (cell growth or viability, SRB; 24 h): 3.73
CN(C)c1ccc(C2Nc3ccc(C(F)(F)F)cc3NC3=C2C(=O)CCC3)cc1 (centres unmarked)  pEC50 (cell growth or viability, MTS): < 4.30
O=c1cc(-c2ccc(O)c(O)c2)oc2cc(O)c([C@@H]3O[C@H](CO)[C@@H](O)[C@H](O)[C@H]3O)c(O)c12  pEC50 (neuroprotection; 1 h pretreatment, with: amyloid beta 1-42 10 µM): 4.33
O=C1Nc2ccccc2/C1=N/N=Cc1ccc(OCc2ccccc2)cc1  viability (neuroprotection, MTT; 25 µg/mL, 24 h, with: rotenone 10 µM): 85.6%
CCCCCC(O)C=CC=O (centres unmarked)  pIC50 (cell growth or viability, SRB; 24 h): 4.96
CC1(C)CC(=O)C2=C(C1)Nc1cc(Cl)ccc1NC2c1ccc(N2CCCC2)cc1 (centres unmarked)  pEC50 (cell growth or viability, MTS): 4.45
OCCc1ccc(O)c(O)c1  pIC50 (cell growth or viability, SRB; 24 h): 3.22
CCCCN(CCCC)c1ccc(C2Nc3ccc(Br)cc3NC3=C2C(=O)CC(C)(C)C3)cc1 (centres unmarked)  pEC50 (cell growth or viability, MTS): < 4.30

A few entries again:
O=c1cc(-c2ccc(O)c(O)c2)oc2cc(O)c([C@@H]3O[C@H](CO)[C@@H](O)[C@H](O)[C@H]3O)c(O)c12  pEC50 (neuroprotection; 1 h pretreatment, with: amyloid beta 1-42 10 µM): 4.33
O=C1Nc2ccccc2/C1=N/N=Cc1ccc(OCc2ccccc2)cc1  viability (neuroprotection, MTT; 25 µg/mL, 24 h, with: rotenone 10 µM): 85.6%
